Measurements gathered from unrelated publications.
Numbered parts are unrelated; each lists some results of a single study.

Series 1
Organism: Saccharomyces cerevisiae
Observed: binding
Method: competitive growth deep sequencing
Form: peptide
Strain: cyclin D3-Cln2 fusion strain
Notes: peptide tiling library
Direction: direction not given
Sequence | enrichment score
ALTMEALEDPSPELME | 1.64
VEEEFFALRKRTPSAG | 0.168
IFNKPECGRVQRAIFQ | -1.26
TLPYDLACTGGDFVLF | 0.858
ELGMEHCEKFEISETS | 0.992
LFVPQRKLEVSTEDVH | -1.27
NRLLKLFTRCLTPLVP | -2.18
EAAPPTQEAQGETEPT | 0.893
NLEPNAEFDKRTEFIT | 0.708
SGYLTDENEVGFRG | 0.756
VRDLSYRLVFLACCVA | -0.497
TQERKQIHCLSEDELS | 0.348
NARRSLNFGGSTGT | -0.499
NCKKRRALDFLSRLPL | -1.26
RRRIKLPESDSSED | 1.62
IPMIAKNLMCELDE | -0.018
RNRGPKLNAMLRLGVL | -2.94

Series 2
Target: Sal-like protein 4, full length isoform B (SALL4, Homo sapiens, UniProt Q9UJQ4-2, residues 1-616)
Method: universal PBM
Form: double-stranded DNA, one strand shown
Sample: in vitro
Tested at: not given
Notes: 8-mer, flanks averaged, mean of replicates
Direction: higher = stronger binding
Construct (chain): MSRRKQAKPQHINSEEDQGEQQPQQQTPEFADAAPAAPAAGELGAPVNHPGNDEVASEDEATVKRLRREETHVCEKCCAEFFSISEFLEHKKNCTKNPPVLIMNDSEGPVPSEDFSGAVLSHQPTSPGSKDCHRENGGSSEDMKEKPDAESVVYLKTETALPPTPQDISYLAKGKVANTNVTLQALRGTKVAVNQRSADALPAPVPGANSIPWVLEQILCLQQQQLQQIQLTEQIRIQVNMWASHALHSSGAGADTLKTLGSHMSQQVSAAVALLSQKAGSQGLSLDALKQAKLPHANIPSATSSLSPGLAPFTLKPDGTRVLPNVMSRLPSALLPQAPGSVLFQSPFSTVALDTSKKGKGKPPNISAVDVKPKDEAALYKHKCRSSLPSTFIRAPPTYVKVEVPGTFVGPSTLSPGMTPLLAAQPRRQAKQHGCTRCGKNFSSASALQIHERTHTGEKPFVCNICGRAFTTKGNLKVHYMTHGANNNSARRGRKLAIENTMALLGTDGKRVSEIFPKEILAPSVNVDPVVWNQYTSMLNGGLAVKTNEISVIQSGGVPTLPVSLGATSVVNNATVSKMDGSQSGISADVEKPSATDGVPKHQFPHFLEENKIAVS
Oligonucleotide | E-score
CGATTACG | -0.0538
AAGCGGCG | -0.281
GGTCTAAC | -0.157
ACGCAAGT | -0.0601
AACGAGTA | 0.0983
ACGTTTAG | 0.0815
AAACTGGC | -0.172
TCCTTGCA | -0.214
AGAATAAG | 0.215
CGGGGTCC | -0.361
ATTAGAAG | 0.141
ATCACTGA | 0.0901
TCACTGAA | -0.0559
AATGAAGA | 0.158
AGTGGATC | -0.0713
ACGTGCAT | 0.228
GAGTATGC | 0.0495
ACCCCGGG | -0.321
GTAGAGAC | -0.0591
AGCACCGA | -0.108
CACATGGA | 0.00482
AAACTACG | 0.0199
CGCAGCGA | -0.317
CTTTATAC | 0.24
GGAGTCCC | -0.374

Series 3
Target: Centromere-binding protein 1, full length, N-terminal tag (CBF1, Saccharomyces cerevisiae, UniProt P17106, residues 1-351)
Sequence of UniProt P17106 (whole entry, looked up): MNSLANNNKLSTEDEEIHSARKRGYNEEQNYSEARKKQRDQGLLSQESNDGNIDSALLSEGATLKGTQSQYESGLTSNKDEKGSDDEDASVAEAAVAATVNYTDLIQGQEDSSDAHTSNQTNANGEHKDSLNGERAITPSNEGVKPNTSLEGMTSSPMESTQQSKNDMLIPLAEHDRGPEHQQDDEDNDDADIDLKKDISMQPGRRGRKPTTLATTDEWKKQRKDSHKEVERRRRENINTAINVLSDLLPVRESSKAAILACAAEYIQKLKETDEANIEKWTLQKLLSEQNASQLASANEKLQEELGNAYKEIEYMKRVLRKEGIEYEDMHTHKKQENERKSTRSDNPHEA
Method: protein-binding microarray
Form: double-stranded DNA, one strand shown
Sample: in vitro
Tested at: 0.8 µM
Notes: whole 60-bp probe, no competitor
Direction: higher = stronger binding
All sequences stand within: … GTCTTGATTCGCTTGACGCTGCTG
Oligonucleotide | fluorescence intensity [a.u.]
GAATGCGATTCTTTTCGCATGCACTCAATTGGATAG | 506
CCTAACTACTATAATCATCAGTCATAGCTTCGTACA | 543
CTATGAGTACTTCCTCACCTGATCCAATCGATTTTC | 903
CTAAAAGTTGAACGTGGTGAGTCTTTAACAAAATTC | 570
CTAAAGGCGAAGCTTCCTCACATGGAAAAGGCTTTC | 520
CTATGAGCAGAAGTTGATGTTACCTAGATGTGATTC | 526
GAATCTGGTACATAAGGTGAGTCATATTTACATTAG | 530
GAACCCATATGTGAACATCAGGGAATCTAATCTTAG | 471
CTAGGCCCGCCGTCCAACGTGCGGGTACCGTACTTC | 464
TGTACGAAGCTATTACATGTGATTATAGTAGTTAGG | 1460
CTAAGATTAATGGTGCATCAGAGCTTTCCCTTTTTC | 492
GAATGTGCTGGCGACCACGGGGCTGACAGAGACTAG | 638
GAACATTTGCTCTTTCATCAGACATTCTATATCTAG | 537
GAATCCAATCGACGTGGTGGAAAGACTCTAACGTAG | 547
CTATTCTTCTTGCAGCACATCAGCTGCTTTGCTTTC | 1120
CTAAAGTGTGGCGGTCACGCTGAACGCAGGAGATTC | 870
CTAAAGAACAAAATCTCCGTGATCTTTTAAACTTTC | 520
CTATTTTTTGTGGGTGTCACCACGCTAGCGCTTTTC | 513
TGTACGAAGCTATTTAACATGACTATAGTAGTTAGG | 523
CTATAATCCATACGTGGTCGTGCTTTACTGAATTTC | 543

Series 4
Target: Interferon regulatory factor 5, full length, phosphomimetic (IRF5, Homo sapiens, UniProt Q13568-2, residues 1-514, S451D/S453D/S456D/S462D)
Method: protein-binding microarray
Form: double-stranded DNA, one strand shown
Sample: in vitro
Tested at: 940 nM top
Notes: 60-bp whole probe
With: salmon DNA 0.4 mg/ml
Relative to: random background probes
Direction: higher = stronger binding
All sequences stand within: GCCTAGCAC … GTCTTGATTCGCTTGACGCTGCTG
Oligonucleotide | fitted relative affinity [z-score]
TTAGGTCTCCTTCTCGTTTAGTGCTAG | 0.687
GGACCGACCCCTCCATCCCTGTGCTAG | -0.0119
TTAGTTTTCAGTCTCGATTAGTGCTAG | 4.71
AAGGATTTCAGTTTCTCTTTGTGCTAG | 2.99
TGCTCCTTATGGCTAAAGGGGTGCTAG | -0.275
AACGATGCAAGTGCCCTTCGGTGCTAG | -0.407
TCCATTTCTGTTTTTGCTTTGTGCTAG | 1.98
TGGGTTGTAGGTTTTCTGAAGGTGCTA | 0.284
TTAGGTTTCGGACTGGGTTGGTGCTAG | 7.63
GACGACCTCAGTCTCGAGACGTGCTAG | 1.11
GACGGTATCGGTTTGGGGACGTGCTAG | 8.4
GACGGACTGCTTCTTCTGACGTGCTAG | -0.179
ATTCCTCTCACCTCGGCCTCGTGCTAG | 2
TCATTTCTCAGTTTATTACTGTGCTAG | 2.14
GACGGTCTCAGTATCGAGACGTGCTAG | 2.81
TTAGGTTTCGACACTGCGTTAGTGCTA | 8.01
GAAATTTTCCCCTACTGTATGTGCTAG | 0.961
TTAGAACTGGGGTATCGCTTAGTGCTA | 1.23
TTAGGTTGCGGGACTGGGTTAGTGCTA | 0.248
TCACTTTCAGTTCTCCCACTGTGCTAG | 4.59
GCCAAACACCCACATTCACCGTGCTAG | 1.23
GACGGACTGGTTTTCGGGACGTGCTAG | 0.253
GACGGTCTCGGACTGCGGACGTGCTAG | 0.689
TTTGGTCTCGGACTGGGTTAGTGCTAG | 2.57
GACGGACTGGGTCTCGGGGCGTGCTAG | -0.436

Series 5
Target: TAR DNA-binding protein 43, full length, His tag (TARDBP, Homo sapiens, UniProt Q13148, residues 1-414)
Method: RNA Bind-n-Seq
Form: RNA
Sample: in vitro
Tested at: 20 nM
Notes: 6-mer, flanks averaged, single round
With: 150 mM KCl
Relative to: input library
Direction: higher = stronger binding
Oligonucleotide | 6-mer enrichment (R)
CGUGCG | 1.47
AGUCCC | 0.625
CCCACU | 0.628
UCUUCG | 0.57
AAUAUC | 0.589
UAGGCG | 1.49
ACUCGC | 0.604
CAGUGU | 0.911
CGGGGC | 3.89
GAGAGA | 1.6
AAAACG | 0.623
GCGUGC | 1.48
CCCAAU | 0.653
AAAAUC | 0.604
GCCGAG | 1.54
GCGUUG | 1.28
GUGGUG | 3.18
GUCGAC | 0.87

A few entries again (series 1):
Sequence | enrichment score
ALTMEALEDPSPELME | 1.64
VEEEFFALRKRTPSAG | 0.168
IFNKPECGRVQRAIFQ | -1.26
TLPYDLACTGGDFVLF | 0.858
ELGMEHCEKFEISETS | 0.992
LFVPQRKLEVSTEDVH | -1.27
NRLLKLFTRCLTPLVP | -2.18
EAAPPTQEAQGETEPT | 0.893
NLEPNAEFDKRTEFIT | 0.708
SGYLTDENEVGFRG | 0.756
VRDLSYRLVFLACCVA | -0.497
TQERKQIHCLSEDELS | 0.348
NARRSLNFGGSTGT | -0.499
NCKKRRALDFLSRLPL | -1.26
RRRIKLPESDSSED | 1.62
